{"data": "Measurements of several laboratories", "note": "Protocols differ between the studies behind these lines. Several values in a cell are separate wells, animals, samples, runs or records. Numbers after ± are the reported error."}
{"SMILES": "Fc1ccc(Nc2nc(NC3CCCCC3)c3cc(C(F)(F)F)ccc3n2)cc1F", "target or system": "β2AR/β1AR ECL1/3 chimera", "test": "β-arrestin2 recruitment, antagonist, BRET", "how to read": "baseline: isoprenaline maximal response", "quantity": "maximal inhibition", "result": "-5%"}
{"SMILES": "C1=[N+]2CCCC[N+]3=Cc4ccc5[n]4[Au-]23[n]2c1ccc2-c1nc2ccccc2nc1-5.F[P-](F)(F)(F)(F)F", "target or system": "human ACTN3 291-bp linear dsDNA", "test": "high-resolution melt", "conditions": "10.4 µM", "quantity": "melting temperature", "result": "84.8 °C"}
{"SMILES": "COC1CN([C@H]2CC[C@H]([C@@]3(C)Oc4c(Cl)cc(C(=O)NCc5c(SC)cc(C)[nH]c5=O)c(C)c4O3)CC2)C1", "test": "RNA-seq, refers to: TRPC1", "test system": "human, whole blood", "conditions": "dose not given, 24 h", "how to read": "baseline: pretreatment baseline", "quantity": "log2 fold change", "result": 1.48}
{"SMILES": "C1=NCCCN=Cc2ccc([nH]2)-c2nc3ccccc3nc2-c2ccc1[nH]2", "target or system": "human ACTN3 291-bp linear dsDNA", "test": "high-resolution melt", "conditions": "212 nM", "quantity": "melting temperature", "result": "83 °C"}
{"SMILES": "C=CC(=O)N1[C@@H](c2ccc3c(c2)OCO3)c2[nH]c3ccccc3c2C[C@H]1C(=O)N1CCN(C)CC1", "target or system": "human cyclin E1 wild type-3xFLAG:CDK2", "test": "co-IP with TMT proteomics, refers to: HSPA9", "conditions": "concentration not given, P38646", "how to read": "baseline: wild type DMSO", "quantity": "relative co-enrichment", "result": "88%"}
{"SMILES": "Fc1ccc(Nc2nc(NC3CCCCC3)c3cc(Br)ccc3n2)cc1F", "target or system": "β2AR/β1AR TM2 chimera", "test": "β-arrestin2 recruitment, antagonist, BRET", "how to read": "baseline: isoprenaline maximal response", "quantity": "maximal inhibition", "result": "-10%"}
{"SMILES": "C1=[N+]2CCC[N+]3=Cc4ccc5[n]4[Au-]23[n]2c1ccc2-c1nc2ccccc2nc1-5.F[P-](F)(F)(F)(F)F", "target or system": "human ACTN3 291-bp linear dsDNA", "test": "high-resolution melt", "conditions": "2.04 µM", "quantity": "melting temperature", "result": "84 °C"}
{"SMILES": "CC(=O)NCCCN(C)CCCNc1cccc2c1C(=O)c1cccc(NCCCN(C)CCCNC(C)=O)c1C2=O", "target or system": "telomeric G-quadruplex DNA", "test": "DNA thermal stabilisation, CD melting", "conditions": "concentration not given, pH 7.4, with: 100 mM NaCl", "quantity": "ΔTm", "result": "< 0.5 °C"}
{"SMILES": "Nc1ncc(-c2cc(-c3cnn(CC(F)(F)F)c3)ncc2F)nc1C(=O)NC1CNCC(F)C1 (centres unmarked)", "target or system": "NEK5", "test": "KINOMEscan", "conditions": "1 µM", "how to read": "baseline: DMSO control", "quantity": "remaining binding", "result": "86%"}
{"SMILES": "CC(C)c1ccc(N(C)c2ccc3c(c2)OCC[C@H]3CNc2cnccc2C(=O)O)cc1", "target or system": "HEL", "test": "cell viability, CellTiter-Glo", "conditions": "7 days", "quantity": "IC50", "result": "11.7 nM"}
{"SMILES": "CN1CCCNC(=O)CCC(=O)NCCCN(C)CCCNc2cccc3c2C(=O)c2cccc(c2C3=O)NCCC1", "target or system": "telomeric G-quadruplex DNA", "test": "DNA thermal stabilisation, CD melting", "conditions": "concentration not given, pH 7.4, with: 100 mM NaCl", "quantity": "ΔTm", "result": "< 0.5 °C"}
{"SMILES": "CC[C@H]1OC(=O)[C@H](C)[C@@H](OC(=O)Cc2ccc(N)cc2)[C@H](C)[C@@H](O[C@@H]2O[C@H](C)C[C@H](N(C)C)[C@H]2O)[C@](C)(OC)C[C@@H](C)C(=O)[C@H](C)[C@@H](O)[C@]1(C)O", "target or system": "Escherichia coli ribosome", "test": "in vitro transcription-translation, inhibitor", "quantity": "IC50", "result": "210 nM"}
{"SMILES": "CC1CCC2C(C)(C)C(O)CCC2(C)C12Cc1c(O)cc(CO)c(C=O)c1O2 (centres unmarked)", "target or system": "StaI (Stachybotrys chartarum)", "test": "substrate", "conditions": "30 min, pH 7.0, 45 °C", "quantity": "kcat", "result": "0.072 s⁻¹"}
{"SMILES": "Cc1ccc2c(c1)sc(-c1ccc(N(C)C)cc1)[n+]2C.[I-]", "target or system": "Trypanosoma cruzi", "test": "reporter mRNA translation, inhibitor, refers to: Renilla luciferase mRNA", "test system": "cell-free extract", "conditions": "concentration not given, test 2", "how to read": "baseline: positive over negative control", "quantity": "translation activity", "result": "74% and 84.8%"}
{"SMILES": "CC[C@H]1OC(=O)[C@H](C)[C@@H](OC(=O)Cc2ccc3c(c2)OCO3)[C@H](C)[C@@H](O[C@@H]2O[C@H](C)C[C@H](N(C)C)[C@H]2O)[C@](C)(OC)C[C@@H](C)C(=O)[C@H](C)[C@@H](O)[C@]1(C)O", "target or system": "Escherichia coli ribosome", "test": "in vitro transcription-translation, inhibitor", "quantity": "IC50", "result": "220 nM"}
{"SMILES": "CCCC[C@H](NC(C)=O)C(=O)N[C@@H](CO)C(=O)N[C@H](C(=O)N1CCC[C@H]1C(=O)N[C@]1(C)CCCCCCC=CCCC[C@@](C)(C(=O)N[C@@H](Cc2ccccc2)C(=O)N[C@@H](CCCCN)C(=O)N[C@@H](CCCNC(=N)N)C(=O)N[C@@H](CC(C)C)C(=O)N[C@@H](CCC(N)=O)C(N)=O)NC(=O)[C@H](CCCNC(=N)N)NC(=O)[C@H](CCCC)NC(=O)[C@H](CC(C)C)NC(=O)[C@H](CCCNC(=N)N)NC(=O)[C@H](CCCNC(=N)N)NC(=O)[C@H](CCCNC(=N)N)NC1=O)[C@@H](C)O", "target or system": "proteinase K (Tritirachium album)", "test": "proteolytic stability, LC-MS", "conditions": "25 µM, 184.5 min, pH 7.4", "quantity": "remaining intact peptide", "result": "68.9%"}
{"SMILES": "c1ccc(-c2n[nH]cc2-c2ccnc3ccccc23)nc1", "target or system": "CDC5 (Candida albicans)", "test": "kinase binding, MIB/MS competition", "test system": "Candida albicans lysate", "conditions": "1 µM", "how to read": "baseline: DMSO", "quantity": "log2 fold change", "result": 0.07}
{"SMILES": "CC(C)=CCC/C(C)=C/CC/C(C)=C/Cc1c(O)cc(CO)c(C=O)c1O", "target or system": "StaI′ (Stachybotrys chartarum)", "test": "substrate", "conditions": "30 min, pH 7.5, 40 °C", "quantity": "Vmax", "result": "1.49 nmol/min/mg"}
{"SMILES": "COC(=O)c1c(NC(=O)Cn2cnc([N+](=O)[O-])n2)sc2c1CCC(C)C2 (centres unmarked)", "target or system": "Trypanosoma cruzi", "test": "reporter mRNA translation, inhibitor, refers to: Renilla luciferase mRNA", "test system": "cell-free extract", "conditions": "concentration not given, test 1", "how to read": "baseline: positive over negative control", "quantity": "translation activity", "result": "108% and 104%"}
{"SMILES": "CC[C@H]1OC(=O)[C@H](C)C(=O)[C@H](C)[C@@H](O[C@@H]2O[C@H](C)C[C@H](N(C)C)[C@H]2O)[C@](C)(OC)C[C@@H](C)C(=O)[C@H](C)[C@H]2N(CCCCn3cnc(-c4cccnc4)c3)C(=O)O[C@]12C", "target or system": "Escherichia coli ribosome", "test": "in vitro transcription-translation, inhibitor", "quantity": "IC50", "result": "400 nM"}
{"SMILES": "CC(C)(C)c1cc([N+](=O)[O-])c(NCCNC(=O)CCC(=O)O)c([N+](=O)[O-])c1", "target or system": "anti-BL mouse monoclonal antibody", "test": "binding, indirect competitive ELISA", "conditions": "pH 7.4, 1% methanol", "quantity": "IC50", "result": "0.385 ng/mL"}
{"SMILES": "CC1(C)C[N+]2=Cc3ccc4[n]3[Au-]23[n]2c(ccc2-c2nc5ccccc5nc2-4)C=[N+]3C1.F[P-](F)(F)(F)(F)F", "target or system": "human ACTN3 291-bp linear dsDNA", "test": "high-resolution melt", "conditions": "2.02 µM", "quantity": "melting temperature", "result": "83.9 °C"}
{"SMILES": "NCCOc1cc(NC(=O)c2cc(Cl)cc(C(=O)Nc3cc(OCCN)c4ccccc4n3)n2)nc2ccccc12", "target or system": "c-kit1 G-quadruplex DNA", "test": "FRET melting", "conditions": "1 µM, pH 7.4, with: 60 mM potassium", "quantity": "ΔTm", "result": "33.3 ± 0.9 K"}
{"SMILES": "Cc1sc2ncn(CC(=O)N3CCCC3)c(=O)c2c1-c1ccc(Cl)cc1", "target or system": "rat GluN1/GluN2A chimera with GluN2D M2, M3 and S2", "test": "two-electrode voltage clamp", "test system": "Xenopus oocytes", "conditions": "50 µM", "how to read": "baseline: vehicle", "quantity": "ion current", "result": "103 ± 1.7%"}
{"SMILES": "CC[C@H]1OC(=O)[C@H](C)[C@@H](OC(=O)Cc2c(F)cc([N+](=O)[O-])cc2F)[C@H](C)[C@@H](O[C@@H]2O[C@H](C)C[C@H](N(C)C)[C@H]2O)[C@](C)(OC)C[C@@H](C)C(=O)[C@H](C)[C@@H](O)[C@]1(C)O", "target or system": "Escherichia coli ribosome", "test": "in vitro transcription-translation, inhibitor", "quantity": "IC50", "result": "140 nM"}
{"SMILES": "Cc1ncsc1-c1ccc(C(C)NC(=O)C2CC(O)CN2C(=O)C(NC(=O)CCCCCCCCCCN2CCCC(Nc3ncc(Cl)c(Nc4ccccc4S(=O)(=O)C(C)C)n3)C2)C(C)(C)C)cc1 (centres unmarked)", "target or system": "22Rv1", "test": "RNA-seq, refers to: LIFR-AS1", "conditions": "concentration not given", "how to read": "baseline: DMSO", "quantity": "log2 fold change", "result": -2.05}
{"SMILES": "CSCc1cn(-c2cccc(C(=O)N3CCC(c4nc(-c5ccccc5)n[nH]4)CC3)c2)nn1", "target or system": "FSP1 L323A", "test": "resorufin formation, inhibitor", "conditions": "with: NADH, resazurin", "quantity": "IC50", "result": "no inhibition"}
{"SMILES": "CNS(=O)(=O)Nc1nccc(Cc2c(C)c3ccc(Oc4ncccc4F)cc3oc2=O)c1F", "target or system": "EN", "test": "cell viability, CellTiter-Glo", "conditions": "7 days", "quantity": "IC50", "result": "> 1000 nM"}
{"SMILES": "C=CC(=O)Nc1cccc(Cn2ncc3cnc(Nc4cnn(CCOC)c4)nc32)c1", "target or system": "human ABL1(M351T)-phosphorylated", "test": "KINOMEscan", "conditions": "100 nM", "how to read": "baseline: control", "quantity": "binding", "result": "8.5%"}
{"note": "Some of these lines once more:"}
{"SMILES": "CC(C)(C)c1cc([N+](=O)[O-])c(NCCNC(=O)CCC(=O)O)c([N+](=O)[O-])c1", "target or system": "anti-BL mouse monoclonal antibody", "test": "binding, indirect competitive ELISA", "conditions": "pH 7.4, 1% methanol", "quantity": "IC50", "result": "0.385 ng/mL"}
{"SMILES": "CSCc1cn(-c2cccc(C(=O)N3CCC(c4nc(-c5ccccc5)n[nH]4)CC3)c2)nn1", "target or system": "FSP1 L323A", "test": "resorufin formation, inhibitor", "conditions": "with: NADH, resazurin", "quantity": "IC50", "result": "no inhibition"}
{"SMILES": "COC1CN([C@H]2CC[C@H]([C@@]3(C)Oc4c(Cl)cc(C(=O)NCc5c(SC)cc(C)[nH]c5=O)c(C)c4O3)CC2)C1", "test": "RNA-seq, refers to: TRPC1", "test system": "human, whole blood", "conditions": "dose not given, 24 h", "how to read": "baseline: pretreatment baseline", "quantity": "log2 fold change", "result": 1.48}
